# Assay results collected from several papers.
# Values joined by “and” are separate records of one study, mostly repeats; a detail may differ. ± marks the error that the study gave.
# XPO1: Exportin-1 (XPO1, Homo sapiens, UniProt O14980)
# UniProt O14980, sequence (whole entry, looked up): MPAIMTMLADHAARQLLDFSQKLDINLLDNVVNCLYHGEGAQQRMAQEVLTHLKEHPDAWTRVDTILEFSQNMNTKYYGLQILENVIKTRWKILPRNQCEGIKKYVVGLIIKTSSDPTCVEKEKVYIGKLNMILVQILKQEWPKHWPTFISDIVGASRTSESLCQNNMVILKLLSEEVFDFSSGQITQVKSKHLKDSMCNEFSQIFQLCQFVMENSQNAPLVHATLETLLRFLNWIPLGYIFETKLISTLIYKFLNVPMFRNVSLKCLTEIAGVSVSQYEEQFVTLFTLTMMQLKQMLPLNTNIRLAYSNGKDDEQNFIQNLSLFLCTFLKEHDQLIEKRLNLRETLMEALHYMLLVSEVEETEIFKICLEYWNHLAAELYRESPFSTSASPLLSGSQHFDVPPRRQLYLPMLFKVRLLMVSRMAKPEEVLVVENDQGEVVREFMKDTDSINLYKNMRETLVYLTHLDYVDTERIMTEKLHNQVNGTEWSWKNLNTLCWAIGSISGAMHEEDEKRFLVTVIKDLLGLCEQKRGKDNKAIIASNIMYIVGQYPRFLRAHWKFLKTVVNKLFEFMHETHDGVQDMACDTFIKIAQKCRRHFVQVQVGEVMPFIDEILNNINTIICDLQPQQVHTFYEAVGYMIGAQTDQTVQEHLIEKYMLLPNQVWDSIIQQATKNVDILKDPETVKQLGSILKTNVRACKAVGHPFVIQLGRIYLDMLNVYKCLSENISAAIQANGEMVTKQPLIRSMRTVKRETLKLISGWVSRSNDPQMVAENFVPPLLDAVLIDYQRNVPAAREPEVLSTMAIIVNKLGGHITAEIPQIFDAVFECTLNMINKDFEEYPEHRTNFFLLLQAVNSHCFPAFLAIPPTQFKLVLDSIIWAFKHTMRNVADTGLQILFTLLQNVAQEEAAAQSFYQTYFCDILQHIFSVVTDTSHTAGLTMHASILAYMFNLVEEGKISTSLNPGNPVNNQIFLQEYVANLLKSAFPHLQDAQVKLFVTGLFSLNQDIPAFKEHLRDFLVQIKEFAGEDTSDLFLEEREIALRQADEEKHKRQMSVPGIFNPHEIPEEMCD
# Nuclear receptor subfamily 2 group C member 2 ligand-binding domain: Nuclear receptor subfamily 2 group C member 2, ligand-binding domain (Homo sapiens, UniProt P49116)
# UniProt P49116, sequence (whole entry, looked up): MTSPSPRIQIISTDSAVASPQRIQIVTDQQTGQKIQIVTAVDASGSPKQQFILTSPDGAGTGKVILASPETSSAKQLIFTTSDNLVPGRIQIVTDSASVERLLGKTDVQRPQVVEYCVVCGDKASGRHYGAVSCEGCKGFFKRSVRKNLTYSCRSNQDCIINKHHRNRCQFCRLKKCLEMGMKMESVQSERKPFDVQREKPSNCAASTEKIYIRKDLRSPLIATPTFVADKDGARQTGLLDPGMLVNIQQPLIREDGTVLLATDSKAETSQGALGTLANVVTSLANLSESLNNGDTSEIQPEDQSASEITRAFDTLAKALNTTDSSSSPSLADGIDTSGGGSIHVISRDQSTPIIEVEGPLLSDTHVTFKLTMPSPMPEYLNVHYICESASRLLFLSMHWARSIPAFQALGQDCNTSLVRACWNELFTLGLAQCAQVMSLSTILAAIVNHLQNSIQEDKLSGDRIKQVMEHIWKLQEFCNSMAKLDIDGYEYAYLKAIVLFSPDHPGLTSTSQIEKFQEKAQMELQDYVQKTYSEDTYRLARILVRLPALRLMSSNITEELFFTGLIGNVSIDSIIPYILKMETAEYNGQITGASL
# MAP2K5: Dual specificity mitogen-activated protein kinase kinase 5 (MAP2K5, Homo sapiens, UniProt Q13163)
# UniProt P51575, sequence (whole entry, unmodified, looked up): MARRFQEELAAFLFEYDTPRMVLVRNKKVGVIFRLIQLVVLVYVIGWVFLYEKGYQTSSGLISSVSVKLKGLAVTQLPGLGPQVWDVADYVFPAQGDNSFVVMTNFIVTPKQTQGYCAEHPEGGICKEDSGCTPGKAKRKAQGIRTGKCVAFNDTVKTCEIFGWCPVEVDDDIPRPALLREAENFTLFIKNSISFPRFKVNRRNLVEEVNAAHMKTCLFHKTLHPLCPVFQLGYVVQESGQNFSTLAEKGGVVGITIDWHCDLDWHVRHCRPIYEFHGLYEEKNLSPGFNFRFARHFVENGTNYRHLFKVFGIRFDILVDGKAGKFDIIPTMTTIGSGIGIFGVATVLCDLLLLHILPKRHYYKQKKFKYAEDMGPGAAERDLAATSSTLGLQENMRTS
# UniProt P31941, sequence (whole entry, looked up): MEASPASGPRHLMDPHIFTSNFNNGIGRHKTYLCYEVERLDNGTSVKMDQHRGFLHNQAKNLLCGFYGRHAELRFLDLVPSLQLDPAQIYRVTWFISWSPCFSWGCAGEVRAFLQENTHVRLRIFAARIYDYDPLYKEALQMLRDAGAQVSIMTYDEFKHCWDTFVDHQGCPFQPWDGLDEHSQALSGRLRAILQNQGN
# UniProt Q13163, sequence (whole entry, looked up): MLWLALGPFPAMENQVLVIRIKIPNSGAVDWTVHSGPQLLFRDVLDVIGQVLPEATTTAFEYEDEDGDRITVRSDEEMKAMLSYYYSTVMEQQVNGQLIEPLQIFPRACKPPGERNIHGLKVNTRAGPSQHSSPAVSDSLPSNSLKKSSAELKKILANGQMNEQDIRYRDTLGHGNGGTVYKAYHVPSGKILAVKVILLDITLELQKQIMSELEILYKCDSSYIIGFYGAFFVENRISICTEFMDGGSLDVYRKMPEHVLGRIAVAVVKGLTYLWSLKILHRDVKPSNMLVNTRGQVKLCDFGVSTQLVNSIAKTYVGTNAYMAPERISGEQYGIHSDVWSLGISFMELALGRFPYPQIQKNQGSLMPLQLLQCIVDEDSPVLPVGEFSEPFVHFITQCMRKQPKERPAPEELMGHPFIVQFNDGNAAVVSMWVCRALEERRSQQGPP
# UniProt Q04206, sequence (whole entry, looked up): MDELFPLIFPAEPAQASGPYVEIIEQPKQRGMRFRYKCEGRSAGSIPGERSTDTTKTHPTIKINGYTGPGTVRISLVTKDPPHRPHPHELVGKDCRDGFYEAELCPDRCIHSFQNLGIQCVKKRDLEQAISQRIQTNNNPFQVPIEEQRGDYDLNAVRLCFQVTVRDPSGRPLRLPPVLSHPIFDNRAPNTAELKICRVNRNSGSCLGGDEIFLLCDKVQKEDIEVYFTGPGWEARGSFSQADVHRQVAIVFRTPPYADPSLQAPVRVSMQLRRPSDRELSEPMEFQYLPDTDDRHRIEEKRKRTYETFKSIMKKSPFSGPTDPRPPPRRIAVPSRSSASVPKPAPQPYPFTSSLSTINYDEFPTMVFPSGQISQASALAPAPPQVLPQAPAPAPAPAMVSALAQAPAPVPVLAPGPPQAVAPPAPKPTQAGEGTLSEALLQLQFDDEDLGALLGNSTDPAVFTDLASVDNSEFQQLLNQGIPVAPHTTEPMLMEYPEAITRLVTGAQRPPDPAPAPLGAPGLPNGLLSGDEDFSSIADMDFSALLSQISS
# UniProt Q62351, sequence (whole entry, looked up): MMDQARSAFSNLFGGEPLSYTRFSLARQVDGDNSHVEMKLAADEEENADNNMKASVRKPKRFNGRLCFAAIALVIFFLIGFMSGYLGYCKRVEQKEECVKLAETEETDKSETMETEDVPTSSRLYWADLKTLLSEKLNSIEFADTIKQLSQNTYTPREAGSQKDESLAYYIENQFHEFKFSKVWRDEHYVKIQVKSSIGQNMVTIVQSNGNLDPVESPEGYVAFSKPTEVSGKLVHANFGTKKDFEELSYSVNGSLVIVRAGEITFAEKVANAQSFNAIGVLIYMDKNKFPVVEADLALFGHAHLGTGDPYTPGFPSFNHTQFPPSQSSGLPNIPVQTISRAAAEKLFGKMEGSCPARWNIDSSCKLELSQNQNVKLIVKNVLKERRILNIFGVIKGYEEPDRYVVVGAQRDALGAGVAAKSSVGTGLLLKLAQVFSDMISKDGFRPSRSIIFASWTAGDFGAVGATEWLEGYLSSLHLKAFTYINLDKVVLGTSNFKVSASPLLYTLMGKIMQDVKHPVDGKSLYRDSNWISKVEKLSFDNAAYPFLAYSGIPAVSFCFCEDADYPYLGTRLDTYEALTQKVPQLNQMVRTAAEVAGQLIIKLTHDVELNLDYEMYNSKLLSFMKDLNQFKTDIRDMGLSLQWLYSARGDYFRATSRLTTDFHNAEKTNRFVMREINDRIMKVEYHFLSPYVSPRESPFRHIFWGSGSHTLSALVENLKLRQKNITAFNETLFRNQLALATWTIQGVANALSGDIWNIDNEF
# UniProt P40763, sequence (whole entry, looked up): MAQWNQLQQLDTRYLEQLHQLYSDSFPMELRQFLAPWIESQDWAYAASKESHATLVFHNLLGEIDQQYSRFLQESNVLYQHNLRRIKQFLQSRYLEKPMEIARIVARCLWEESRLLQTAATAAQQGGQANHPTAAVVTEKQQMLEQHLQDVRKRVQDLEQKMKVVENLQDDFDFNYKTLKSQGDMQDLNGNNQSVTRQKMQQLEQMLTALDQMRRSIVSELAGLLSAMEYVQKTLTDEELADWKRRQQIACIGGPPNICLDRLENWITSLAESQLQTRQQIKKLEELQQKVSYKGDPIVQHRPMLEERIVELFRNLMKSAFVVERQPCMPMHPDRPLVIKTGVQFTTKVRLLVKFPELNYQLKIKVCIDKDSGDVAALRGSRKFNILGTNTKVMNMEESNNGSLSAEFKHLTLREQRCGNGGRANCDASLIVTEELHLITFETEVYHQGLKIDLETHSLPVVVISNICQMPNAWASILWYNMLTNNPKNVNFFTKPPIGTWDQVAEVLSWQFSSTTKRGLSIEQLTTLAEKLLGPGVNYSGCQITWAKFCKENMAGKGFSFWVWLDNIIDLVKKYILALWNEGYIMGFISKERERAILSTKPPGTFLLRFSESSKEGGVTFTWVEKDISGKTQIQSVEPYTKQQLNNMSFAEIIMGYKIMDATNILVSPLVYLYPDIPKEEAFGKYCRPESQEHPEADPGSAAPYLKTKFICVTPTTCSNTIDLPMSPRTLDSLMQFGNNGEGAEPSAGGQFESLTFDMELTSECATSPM
# UniProt P40337, sequence (whole entry, looked up): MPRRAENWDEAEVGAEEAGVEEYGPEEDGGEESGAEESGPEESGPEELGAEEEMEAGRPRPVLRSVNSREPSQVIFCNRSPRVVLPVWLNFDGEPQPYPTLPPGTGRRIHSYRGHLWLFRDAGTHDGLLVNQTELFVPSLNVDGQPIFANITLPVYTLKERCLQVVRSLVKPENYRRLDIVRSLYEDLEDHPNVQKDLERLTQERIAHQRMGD
SMILES,target or system,test,test system,setting,scale,quantity,value
CCC1(O)CCCN(C(=O)c2ccc(-c3ccc(F)c(NC(=O)CCl)c3)cc2)C1 (centres unmarked),"DNA dC->dU-editing enzyme APOBEC-3A (Homo sapiens, UniProt P31941)","covalent adduct, intact protein MS",,"1 h, 5-fold excess, 125 µM",,unmodified protein,5% and 0%
CC1CCCN(C(=O)c2cc3ncccn3n2)C1 (centres unmarked),"YTH domain-containing protein 1 (Homo sapiens, UniProt Q96MU7)","binding, affinity selection mass spectrometry",,,relative to: other proteins in batch,log fold enrichment,0.144
C[C@@H]1CCO[C@H]2Cn3cc(C(=O)NCc4ccc(F)cc4F)c(=O)c(O)c3C(=O)N12,"SLC29A4 (Homo sapiens, UniProt Q7RTT9)",transport,"MDCK-II, transfected","5 µM, with: MPP+ 10 µM",,inhibition,-1.18%
O=C(/C=C\n1cnc(-c2cc(C(F)(F)F)cc(C(F)(F)F)c2)n1)NNc1cnccn1,XPO1,"nuclear export, high content imaging",HeLa Kyoto reporter,"1 µM, 2 h",,cells with nuclear reporter,96.8% and 97.1%
O=C(COP(=O)(O)O)[C@@H](O)[C@H](O)[C@H](O)COP(=O)(O)O,XPO1,thermal proteome profiling,HepG2 cell lysate,"concentration not given, 57 over 37 °C, mean",relative to: compound over control,thermal stability ratio,0.589
Cc1ncccc1OC[C@@H]1CN(CCN2CCc3ccccc32)CCO1,"DRD5 (Homo sapiens, UniProt P21918)",radioligand binding,,"concentration not given, with: [3H]SCH23390",,inhibition,7.7%
CC[C@@H]1[C@H](F)C(=O)N[C@@H]1COc1nccc2cc(C(N)=O)c(OC)cc12,"CDK14 (Homo sapiens, UniProt O94921)","ATP probe binding, KiNativ profiling, measured: Lys2 probe site",THP-1 cell lysate,0.04 mM,,inhibition,5.5%
CCCC[C@H]1CN(c2cccc(Cl)c2)C(=O)CN1Cc1cncn1Cc1ccc(C#N)cc1,Cryptococcus neoformans farnesyltransferase,"enzyme activity, inhibitor, fluorescence",,"with: 1 µM FPP, 0.5 µM dansylated peptide",,IC50,0.1 ± 0.01 µM
CC(C)C[C@@H]1NC(=O)CNC(=O)[C@H](CC(C)C)NC(=O)[C@@H]2CCCN2C(=O)[C@H](CC(=O)O)NC(=O)[C@H](Cc2ccc(O)cc2)NC(=O)CNC(=O)[C@@H](Cc2ccc(O)cc2)NC(=O)CSC[C@@H](C(N)=O)NC(=O)[C@H](C)NC(=O)[C@H](Cc2ccccc2)NC(=O)[C@H](Cc2ccc(O)cc2)NC(=O)[C@H](CCCCN)NC1=O,"VPS35/VPS29 (Homo sapiens, UniProt Q96QK1+Q9UBQ0)","binding, ITC",,"25 °C, heterodimer",,ΔG,-10.3 ± 0.08 kcal/mol
Nc1ccn([C@@H]2CS[C@H](CO)O2)c(=O)n1,Nuclear receptor subfamily 2 group C member 2 ligand-binding domain,SPR imaging,,600 nM,,koff,4.73e-05 s⁻¹
CNc1ncc2c(/C=C/C(=O)N3CCC(OC)CC3)nn(Cc3cccc(C(F)(F)F)c3)c2n1,MAP2K5,"kinase activity, inhibitor",,1 µM,relative to: untreated control,remaining activity,107%
Cc1ccc(OC[C@H]2CN(CCN3CCc4ccccc43)CCO2)cn1,"HTR4 (Homo sapiens, UniProt Q13639)",radioligand binding,,concentration not given,,inhibition,13.1%
Clc1ccc(CCC(Cn2ccnc2)Sc2c(Cl)cccc2Cl)cc1 (centres unmarked),Nuclear receptor subfamily 2 group C member 2 ligand-binding domain,SPR imaging,,600 nM,,koff,8.43e-08 s⁻¹
O=C(CCCCCN1C(=O)c2cccc3cccc(c23)C1=O)NO,OCI-Ly1,,,"1 µM, 120 h",,viability,45.7%
COC1CN(C(=O)c2ccc(C=O)cc2)C1,"YWHAG/RELA, phospho-Ser45 p65 peptide (Homo sapiens, UniProt P61981+Q04206)","ternary complex formation, stabilizer, fluorescence anisotropy",,,,EC50,> 1000 µM
CC[C@@H](C)[C@@H](NC(=O)[C@@H](Cc1ccc(O)cc1)NC(=O)[C@H]1CCCN1C(=O)[C@@H](CCCNC(=N)N)NC(=O)[C@H](N)Cc1c[nH]cn1)C(=O)N[C@H](C)C(=O)N[C@H](Cc1c[nH]cn1)C(=O)N[C@H](CCCNC(=N)N)C(=O)N[C@@H](C(=O)N[C@H](Cc1ccc(O)cc1)C(=O)N[C@H](CO)C(=O)N[C@H](Cc1ccccc1)C(N)=O)C(C)C,"Transferrin receptor protein 1 (Tfrc, Mus musculus, UniProt Q62351)",flow cytometry,RAW264.7,"48 h, pH 6, replicate 2, unit not given",relative to: 0 h,surface TFRC expression,1.13
O=C1CSC(=S)N1NC(=S)SSC(=S)NN1C(=O)CSC1=S,"PTPN22 (Homo sapiens, UniProt Q9Y2R2)","inhibitor, phospho-flow cytometry",,"100 µM, with: TCR stimulation",relative to: DMSO,positive cells,26%
O=C1OC(c2ccccc2)=N/C1=C\c1cccc(O)c1,"MAL12 (Saccharomyces cerevisiae S288c, UniProt P53341)","inhibitor, Lineweaver-Burk",,"1600 ppm, with: pNPG substrate",,Vmax,0.191 mM/min
CC(=O)c1ccc2cc(S(=O)(=O)Nc3ccccc3)ccc2c1,"STAT3 (Homo sapiens, UniProt P40763)","tyrosine phosphorylation, inhibitor, ELISA, measured: phospho-Tyr705",,,,Hill slope,-0.454
N#Cc1ccc2[nH]cc(CCCCN3CCN(c4ccc5oc(C(N)=O)cc5c4)CC3)c2c1,"SLC6A4 (Homo sapiens, UniProt P31645, Y579A)","[3H]5-HT uptake, inhibitor",COS-7,,,Hill coefficient,1.88 ± 0.31
Nc1ncnc2c1ncn2[C@@H]1O[C@H](COP(=O)(O)CP(=O)(O)OP(=O)(O)O)[C@@H](O)[C@H]1O,"P2X purinoceptor 1 (P2RX1, Homo sapiens, UniProt P51575, E122A)",saturation binding,,130 nM,,specific binding,1010 corrected cpm and 1520 corrected cpm and 1090 corrected cpm
C=CC(=O)N1CCC(COCC(=O)N2CCN(c3nc(-c4cnc(N)nc4C(F)F)nc(N4CCOC[C@@H]4C)n3)CC2)CC1,MAP2K5,KINOMEscan,,1 µM,,remaining binding,96%
C[C@H](N)C(=O)N[C@@H](CCCNC(=N)N)C(=O)N[C@H](C(=O)N[C@@H](CCCCN)C(=O)N[C@@H](CCC(N)=O)C(=O)N[C@H](C(=O)N[C@@H](C)C(=O)N[C@@H](CCCNC(=N)N)C(=O)N[C@@H](CCCCN)C(=O)N[C@@H](CO)C(=O)O)[C@@H](C)O)[C@@H](C)O,"Transcriptional regulator ATRX (ATRX, Homo sapiens, UniProt P46100, F284Y/K251R)",isothermal titration calorimetry,,"concentration not given, pH 7.5, 25.0 °C",,binding enthalpy,-4.91 kcal/mol
CC(=O)N[C@H](C(=O)N1C[C@H](O)C[C@H]1C(=O)NCc1ccc(-c2scnc2C)cc1)C(C)(C)SCCCCCCNC(=O)C[C@@H]1N=C(c2ccc(Cl)cc2)c2c(sc(C)c2C)-n2c(C)nnc21,"BRD2/VHL, BD1; with VCB (Homo sapiens, UniProt P25440+P40337)",ITC,,"concentration not given, 25 °C, ternary complex, with: BRD2 BD1",,binding stoichiometry,0.88 ± 0.07
CN(CCOc1ccc(NS(C)(=O)=O)cc1)CCc1ccc(NS(C)(=O)=O)cc1,Nuclear receptor subfamily 2 group C member 2 ligand-binding domain,SPR imaging,,600 nM,,koff,5.66e-07 s⁻¹
COCCC(=O)N1CCC(Oc2ccccc2)C1 (centres unmarked),"DCAF1 (Homo sapiens, UniProt Q9Y4B6)","binding, affinity selection mass spectrometry",,,relative to: other proteins in batch,log fold enrichment,-0.111
Clc1ccc(COC(Cn2ccnc2)c2ccc(Cl)cc2Cl)c(Cl)c1 (centres unmarked),Nuclear receptor subfamily 2 group C member 2 ligand-binding domain,SPR imaging,,600 nM,,koff,6.88e-06 s⁻¹
CC(C)C[C@@H]1NC(=O)[C@H](C(C)C)NC(=O)CNC(=O)[C@H](CC(N)=O)NC(=O)[C@@H]2CCCN2C(=O)[C@H](Cc2ccc(O)cc2)NC(=O)[C@H](CCCNC(=N)N)NC(=O)[C@H](C)NC(=O)[C@@H](NC(=O)[C@H](CCCCN)NC(=O)[C@@H]2CCCN2C(=O)[C@H](CO)NC(=O)[C@H](C)NC(=O)[C@@H](N)Cc2ccc(O)cc2)CSSC[C@@H](C(=O)N[C@H](C(N)=O)[C@@H](C)O)NC(=O)[C@H](C)NC1=O,"Alpha-2-HS-glycoprotein, asialo (AHSG, Bos taurus, UniProt P12763)",isothermal titration calorimetry,,"concentration not given, pH 7.0, 25 °C, with: asialofetuin",,binding stoichiometry,0.127
O=C(c1ccc(C(=O)N2CCC(N3CCCC3)CC2)c(Nc2ccccc2)c1)N1CCC(N2CCCC2)CC1,OCI-Ly1,,,"1 µM, 120 h",,viability,134%

# Repeated from above:
SMILES,target or system,test,test system,setting,scale,quantity,value
C=CC(=O)N1CCC(COCC(=O)N2CCN(c3nc(-c4cnc(N)nc4C(F)F)nc(N4CCOC[C@@H]4C)n3)CC2)CC1,MAP2K5,KINOMEscan,,1 µM,,remaining binding,96%
O=C(c1ccc(C(=O)N2CCC(N3CCCC3)CC2)c(Nc2ccccc2)c1)N1CCC(N2CCCC2)CC1,OCI-Ly1,,,"1 µM, 120 h",,viability,134%
COCCC(=O)N1CCC(Oc2ccccc2)C1 (centres unmarked),"DCAF1 (Homo sapiens, UniProt Q9Y4B6)","binding, affinity selection mass spectrometry",,,relative to: other proteins in batch,log fold enrichment,-0.111
O=C1CSC(=S)N1NC(=S)SSC(=S)NN1C(=O)CSC1=S,"PTPN22 (Homo sapiens, UniProt Q9Y2R2)","inhibitor, phospho-flow cytometry",,"100 µM, with: TCR stimulation",relative to: DMSO,positive cells,26%
Cc1ccc(OC[C@H]2CN(CCN3CCc4ccccc43)CCO2)cn1,"HTR4 (Homo sapiens, UniProt Q13639)",radioligand binding,,concentration not given,,inhibition,13.1%
